Published values pooled from the literature.
A part holds a random share of what one study measured.

Series 1 — technique: RNAcompete; molecule type: RNA; sample: in vitro; concentration: 20 nM; notes: 7-mer, probes averaged, single round; relative to: mean of 7-mers; direction: higher = stronger binding
Target: PABPC1L2, full length, GST fusion (mouse, UniProt A0ABA7IW68)
Construct (chain): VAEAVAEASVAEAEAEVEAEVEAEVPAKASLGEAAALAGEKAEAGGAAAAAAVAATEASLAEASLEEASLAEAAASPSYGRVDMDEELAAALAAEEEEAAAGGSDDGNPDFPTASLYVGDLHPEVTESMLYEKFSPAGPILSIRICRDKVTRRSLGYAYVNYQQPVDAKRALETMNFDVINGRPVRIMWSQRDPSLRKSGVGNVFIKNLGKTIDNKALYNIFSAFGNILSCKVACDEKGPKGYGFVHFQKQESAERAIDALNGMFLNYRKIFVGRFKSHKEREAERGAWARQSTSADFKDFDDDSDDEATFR
Oligonucleotide | 7-mer Z-score
CGUCCAA | -0.168
CCAUGAA | 0.0297
CUGAGAG | 0.000733
AGCUCCG | -0.327
UCAUUCC | -0.432
GCUGAUC | -0.161
UACCAAC | -0.0699
GGGCACU | 0.169
ACCAGAC | 0.216
AAUGAUA | 0.178
CCUACAC | -0.309
GAAGACA | 0.254
AUGAACG | 0.0823
GGUACGG | 0.178
AAUACAG | 0.474
CGGGGUC | -0.0337
AGUAGUA | -0.0464
GAGCUGG | 0.117
CCGCGAU | -0.0826
CCAUACU | -0.278
GCUGUAC | -0.122
CUUAAGC | -0.229

Series 2 — technique: protein-binding microarray; molecule type: double-stranded DNA, one strand shown; sample: in vitro; concentration: 250 nM; notes: 60-bp whole probe; added: salmon DNA 0.4 mg/ml; relative to: random background probes; direction: higher = stronger binding; constant ends, left off below: GCCTAGCAC … GTCTTGATTCGCTTGACGCTGCTG
Target: Interferon regulatory factor 5, full length, phosphomimetic (IRF5, Homo sapiens, UniProt Q13568-2, residues 1-514, K96S/S451D/S453D/S456D/S462D)
Oligonucleotide | log fluorescence
GACGGACTGGACTATCGTGACGTGCTA | -0.0761 z-score
GACGATATCAGTATTGAGACGTGCTAG | 1.22 z-score
TTAGATTTGAGTCTCGATTAGTGCTAG | 0.829 z-score
TTAGGTTTAGACTATCGGTTAGTGCTA | 5.04 z-score
TTAGATTTCAGTTTCGGTTAGTGCTAG | 10.9 z-score
GACGGTATCGTCTTTCGGGACGTGCTA | 3.69 z-score
GACGGTCTCGGGCTCGGGACGTGCTAG | -0.439 z-score
TTATGTTTCCTTCTCCTTTAGTGCTAG | 1.54 z-score
TCACATTTTTTTTCATCACTGTGCTAG | 1.38 z-score
ATAGGTATCCTTCTCCTTTAGTGCTAG | 0.394 z-score
TTAGGTTTCCGTCTCGGTTAGTGCTAG | 1.83 z-score
AACGATATCAGTCTCGAGACGTGCTAG | 1.61 z-score

Series 3 — technique: RNA Bind-n-Seq; molecule type: RNA; sample: in vitro; concentration: 365 nM; relative to: no-protein control; direction: higher = stronger binding
Target: RNA binding protein fox-1 homolog 2, RRM domain, GST-SBP tag (RBFOX2, Homo sapiens, UniProt O43251-10, residues 100-194)
Notes: natural RNA segment, single round, ends assumed
Residues (chain): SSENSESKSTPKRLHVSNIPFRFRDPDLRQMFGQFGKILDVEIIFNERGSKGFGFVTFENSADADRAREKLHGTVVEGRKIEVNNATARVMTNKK
Oligonucleotide | RBNS enrichment (R)
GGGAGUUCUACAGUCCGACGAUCAACAAUGGUUUCAGGAGAACUGUUUGUUUCUGUGUGAAUUGAGUUGACACACUCCAGUCCUGAGCUGCUCUGCUGCCGCUUCCCUCAGUUAACCUUCUCACCGAAACCUUUGGAAUUCUCGGGUGCCAA | 0.385
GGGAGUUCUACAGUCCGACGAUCGUACCUGGUUCAGAGCAGUCCGGGAUGAUAGGACGAGAUCCUAAAGUUCUUUCAGGGAGCUCUGCCAUGAGAGCAAACAGAGCAUAUCUAUCAUAUGCCACUUUGACGAAUGGAAUUCUCGGGUGCCAA | 0.269
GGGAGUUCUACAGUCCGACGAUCGGUUUAAAGCUUUUCAAGAACUGGGCUAAAACUCAUCCAGUUUAUCUACAGAAGCUGAAAACAGGCGUUUUAGAUAUUGGUAUAUUGGUAUAUGAUAUGGUAUGAUGCUUUGGAAUUCUCGGGUGCCAA | 0.521
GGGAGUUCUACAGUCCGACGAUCUAUGUGCUAUGGAAGGAAAUGCUGGUGACUAAAAUAAGGUUUACUCUGAAAGAGGAGGAAUUUUAUUCAAAGCAUUCAAACAUUUUAUUCAAGUGUUUCAAAAUUCAAAGUGGAAUUCUCGGGUGCCAA | 0.419
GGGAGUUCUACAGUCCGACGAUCCCUUCACGUUGUAAAUAUGUUUUGUAGAGUGAAGCCAUGGGAAGCCAUGUGUAACAGAGCUUAGACAUCCAAAACUAAUCAAUGCUGAGGUGGCUAAAUACCUAGCCUUUUGGAAUUCUCGGGUGCCAA | 0.31
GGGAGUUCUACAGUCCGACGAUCCCUCAUUGGUCUUCCUCCCACCUGUCCCUUUUCCGGGAAGUUGUGGAAUUGUUGGAAGAAGAGUUUGCAGAAGGUUAGGAAUGGGUAGAUAGCUAAGUCCUAAUCUAUGGUGGAAUUCUCGGGUGCCAA | 0.459
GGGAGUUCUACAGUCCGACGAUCCAUAUGCAAAUCUUUUAUUGUAGAGGACCAGACCAUCGCUGCUGAAGGGACAGGCUGGUGGAGCCUGAGCAGGCAGGGGCUUGGCUGCCCAAGUCUAGCUCUCCAGCAGAUGGAAUUCUCGGGUGCCAA | 0.423
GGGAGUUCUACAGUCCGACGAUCCAAGUUUGUCAAUGAGGCUAUAGCCUCAAGAAGAUGCCAUCUGCCUGAAUGUUGACAUGCCAGCGGGCGUGUGACCCUUCAUUUUCCCUUUCCCUUCCUUUGGACAGUGUUGGAAUUCUCGGGUGCCAA | 0.743

Series 4 — technique: RNA Bind-n-Seq; molecule type: RNA; sample: in vitro; concentration: 200 nM; notes: whole 134-nt RNA, ends assumed; added: 150 mM KCl; relative to: input library; direction: higher = stronger binding
Target: Fragile X messenger ribonucleoprotein 1, C-terminal low-complexity region (Fmr1, Mus musculus, UniProt P35922)
Oligonucleotide | log2 enrichment
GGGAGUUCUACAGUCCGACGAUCCUGUGCUACACAUCGUAUGUACCGAAUCGGGGAAAAAAAGGGGAAAAAGGGGAAAAAGGGGAAAGUAUUAUGUUACGCCGUUCGGAUCUGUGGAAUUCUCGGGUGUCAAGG | -0.317
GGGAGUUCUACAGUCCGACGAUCACCAUGCAAAAGGGCAUCUUUGGGAAGUGGGGCAAGGGGGGGAUAGGGAGGGGGGUAACACUUUGGGAACAGGUGGUCCCAGGUCGUUUCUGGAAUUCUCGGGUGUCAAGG | 0.796
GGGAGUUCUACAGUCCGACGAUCUCAAGUCCUGUGCUACACAUCGUAUGUACCGAAUCGGAGGAAAGGUUUUUUUGGAAAGUAUUAUGUUACGCCGUUCGGAUCUGCACUUCCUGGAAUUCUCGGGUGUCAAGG | -0.74
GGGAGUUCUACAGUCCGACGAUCUCCUCAAGUCCUGUGCUACACAUCGUAUGUACCGAAUCGGGAGGGGAGGAGGAAAGUAUUAUGUUACGCCGUUCGGAUCUGCACUUCCAGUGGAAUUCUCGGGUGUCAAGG | 0.232
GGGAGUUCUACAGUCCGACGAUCAGUCCUGUGCUACACAUCGUAUGUACCGAAUCGGGGCCCCGGGGCCCCGGCCCCGGGGAAAGUAUUAUGUUACGCCGUUCGGAUCUGCACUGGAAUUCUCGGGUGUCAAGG | -1.48
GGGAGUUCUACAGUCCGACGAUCUGGCCCUGGUGGCAUGCGGGGAGGAAGAGGUGGCCUCAUGGAUCGUGGUGGUCCCGGUGGAAUGUUCCGAGGUGGCCGUGGUGGAGACAGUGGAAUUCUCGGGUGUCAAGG | -0.0311
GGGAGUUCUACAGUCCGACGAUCCUCAAGUCCUGUGCUACACAUCGUAUGUACCGAAUCGGUUGGGGUUGGGUUGGAAAGUAUUAUGUUACGCCGUUCGGAUCUGCACUUCCAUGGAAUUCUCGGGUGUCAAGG | 0.0765
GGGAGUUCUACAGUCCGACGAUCCACAGACAACACGGACCCACACAGACACAGAGGGAAGGGGUUGGGAUGGGGACAGGGUGCACAGCAGGGCGGGGUAGGACCCCAGCCCCUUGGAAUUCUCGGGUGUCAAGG | 1.49
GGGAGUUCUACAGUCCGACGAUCGUCCUGUGCUACACAUCGUAUGUACCGAAUCGGGAAAAAAAGGGUUUGGGAAAAAGGGAAAGUAUUAUGUUACGCCGUUCGGAUCUGCACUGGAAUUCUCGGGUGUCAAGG | -0.603

For quick reference, copied from above (series 2):
Oligonucleotide | log fluorescence
TTATGTTTCCTTCTCCTTTAGTGCTAG | 1.54 z-score
TCACATTTTTTTTCATCACTGTGCTAG | 1.38 z-score
ATAGGTATCCTTCTCCTTTAGTGCTAG | 0.394 z-score
